Measurements collected from several papers.
Protocols differ between the studies behind these lines. “And” joins repeats or separate records; there may be more than shown. ± marks the error that the study gave.

CC(C)(C)C(=O)OCOP(=O)(OCOC(=O)C(C)(C)C)C1CCCN(O)C1=O (stereo not shown)  CC50 (UO-31): > 100 µM
CSCC[C@H](N)C(=O)N[C@@H](C)C(=O)N[C@@H](Cc1c[nH]c2ccccc12)C(=O)N[C@@H](Cc1c[nH]cn1)C(=O)N[C@@H](CC(=O)O)C(=O)N[C@@H](CC(=O)O)C(=O)N[C@@H](CCC(=O)O)C(=O)N[C@@H](CCC(=O)O)C(=O)N[C@@H](Cc1ccccc1)C(=O)N[C@@H](C)C(=O)N[C@@H](CCCNC(=N)N)C(=O)N[C@@H](CCCNC(=N)N)C(=O)N[C@@H](CCCNC(=N)N)C(=O)N[C@@H](CCCNC(=N)N)C(=O)NCCCCCC(=O)NCCCCC(NC(=O)CCCCCNC(=O)[C@H](CCCNC(=N)N)NC(=O)[C@H](CCCNC(=N)N)NC(=O)[C@H](CCCNC(=N)N)NC(=O)[C@H](CCCNC(=N)N)NC(=O)[C@H](C)NC(=O)[C@H](Cc1ccccc1)NC(=O)[C@H](CCC(=O)O)NC(=O)[C@H](CCC(=O)O)NC(=O)[C@H](CC(=O)O)NC(=O)[C@H](CC(=O)O)NC(=O)[C@H](Cc1c[nH]cn1)NC(=O)[C@H](Cc1c[nH]c2ccccc12)NC(=O)[C@H](C)NC(=O)[C@@H](N)CCSC)C(=O)NCCCCC(NC(=O)C(CCCCNC(=O)CCCCCNC(=O)[C@H](CCCNC(=N)N)NC(=O)[C@H](CCCNC(=N)N)NC(=O)[C@H](CCCNC(=N)N)NC(=O)[C@H](CCCNC(=N)N)NC(=O)[C@H](C)NC(=O)[C@H](Cc1ccccc1)NC(=O)[C@H](CCC(=O)O)NC(=O)[C@H](CCC(=O)O)NC(=O)[C@H](CC(=O)O)NC(=O)[C@H](CC(=O)O)NC(=O)[C@H](Cc1c[nH]cn1)NC(=O)[C@H](Cc1c[nH]c2ccccc12)NC(=O)[C@H](C)NC(=O)[C@@H](N)CCSC)NC(=O)CCCCCNC(=O)[C@H](CCCNC(=N)N)NC(=O)[C@H](CCCNC(=N)N)NC(=O)[C@H](CCCNC(=N)N)NC(=O)[C@H](CCCNC(=N)N)NC(=O)[C@H](C)NC(=O)[C@H](Cc1ccccc1)NC(=O)[C@H](CCC(=O)O)NC(=O)[C@H](CCC(=O)O)NC(=O)[C@H](CC(=O)O)NC(=O)[C@H](CC(=O)O)NC(=O)[C@H](Cc1c[nH]cn1)NC(=O)[C@H](Cc1c[nH]c2ccccc12)NC(=O)[C@H](C)NC(=O)[C@@H](N)CCSC)C(N)=O (stereo partly shown)  mRNA level (mouse bone marrow macrophages; RT-qPCR, measured: Mapk11 (p38β); concentration not given, unit not given, added: RANKL; baseline: RANKL alone): 1.25
CC(=O)NCSC[C@H](NC(=O)[C@@H]1CCCN1C(=O)[C@H](C)NC(=O)[C@@H](NC(=O)CNC(=O)[C@@H](NC(=O)[C@H](Cc1c[nH]c2ccccc12)NC(=O)[C@H](C)NC(=O)CNC(=O)[C@H](CO)NC(=O)[C@H](C)NC(=O)[C@@H]1CCCN1C(=O)[C@H](Cc1c[nH]c2ccccc12)NC(=O)[C@H](C)NC(=O)[C@H](C)NC(=O)[C@@H](N)Cc1ccc(O)cc1)[C@@H](C)O)[C@@H](C)O)C(=O)N[C@@H](CO)C(=O)N[C@@H](C)C(=O)NCC(=O)N[C@H](C(=O)NCCOCCOCCOCCOCCOCCOCCOCCOCCOCCOCCOCCOCCC(=O)N[C@@H](CS)C(N)=O)[C@@H](C)O  selectivity ratio (Huh-7 liver cancer; phage binding; baseline: targeting over control phage): 290 ± 65
O=C(C[Se]C(=O)c1cccs1)Nc1cccc(C(F)(F)F)c1  mean growth percent (NCI60 breast subpanel; cell growth; 10 µM, 48 h, one-dose): -75.7%
CC1CCC2C(C)C(OC(=O)CCC(=O)N3CCC(Nc4ccc(S(=O)(=O)NC(=O)c5ccc(N6CCN(CC7=C(c8ccc(Cl)cc8)CC(C)(C)CC7)CC6)cc5Oc5cnc6[nH]ccc6c5)cc4[N+](=O)[O-])CC3)OC3OC4(C)CCC1C32OO4 (stereo not shown)  early apoptotic cells (KCL-22; annexin V/PI flow cytometry, measured: annexin V+/PI-; 3.2 µM, 24 h): 56.7%
O=C(C[Se]C(=O)c1ccc2ccccc2n1)Nc1cccc(C(F)(F)F)c1  CC50 (NCI60 breast subpanel; NCI60 five-dose screen): 12.6 µM
CCCNC(=O)[C@H]1O[C@@H]1C(=O)N[C@H](C(=O)N1CCC[C@H]1C(=O)OCC1=C2C(C)=CC(C)=[N+]2[B-](C)(C)n2c(C)cc(C)c21)[C@@H](C)CC  phototoxicity index (MCF-10A; MTT; 4 h; baseline: dark EC50 over light EC50): > 9
Cc1cc(Oc2nc(N3CC[C@@H](c4ccncc4)C3)ncc2F)[nH]n1  IC50 (Granta-519; cell proliferation; blood cancer): > 100 µM
COc1ccccc1-c1ccncc1C(=O)Nc1nnc(OCc2ccc(Cl)cc2)s1  colony survival (DLD-1 parental (BRCA2 WT); 8 µM, average of 3 runs; baseline: untreated): 98.6%
N[C@H](C(=O)N1CCCC1)C1CCN(c2nccc3c(-c4ncc(Cl)cc4Cl)cccc23)CC1  citrullinated histone H3 level (human neutrophils; Western blot densitometry, measured: CitH3 band 6 over GAPDH; 0.1 µM, unit not given, added: ionomycin 5 µM; baseline: GAPDH loading control): 174000 and 163000
